Measured values gathered from unrelated publications.
A part holds a random share of what one study measured. ± marks the error that the study gave. In brackets after ≈: the same amount, converted by molar mass.
UniProt P04517, sequence (whole entry, looked up): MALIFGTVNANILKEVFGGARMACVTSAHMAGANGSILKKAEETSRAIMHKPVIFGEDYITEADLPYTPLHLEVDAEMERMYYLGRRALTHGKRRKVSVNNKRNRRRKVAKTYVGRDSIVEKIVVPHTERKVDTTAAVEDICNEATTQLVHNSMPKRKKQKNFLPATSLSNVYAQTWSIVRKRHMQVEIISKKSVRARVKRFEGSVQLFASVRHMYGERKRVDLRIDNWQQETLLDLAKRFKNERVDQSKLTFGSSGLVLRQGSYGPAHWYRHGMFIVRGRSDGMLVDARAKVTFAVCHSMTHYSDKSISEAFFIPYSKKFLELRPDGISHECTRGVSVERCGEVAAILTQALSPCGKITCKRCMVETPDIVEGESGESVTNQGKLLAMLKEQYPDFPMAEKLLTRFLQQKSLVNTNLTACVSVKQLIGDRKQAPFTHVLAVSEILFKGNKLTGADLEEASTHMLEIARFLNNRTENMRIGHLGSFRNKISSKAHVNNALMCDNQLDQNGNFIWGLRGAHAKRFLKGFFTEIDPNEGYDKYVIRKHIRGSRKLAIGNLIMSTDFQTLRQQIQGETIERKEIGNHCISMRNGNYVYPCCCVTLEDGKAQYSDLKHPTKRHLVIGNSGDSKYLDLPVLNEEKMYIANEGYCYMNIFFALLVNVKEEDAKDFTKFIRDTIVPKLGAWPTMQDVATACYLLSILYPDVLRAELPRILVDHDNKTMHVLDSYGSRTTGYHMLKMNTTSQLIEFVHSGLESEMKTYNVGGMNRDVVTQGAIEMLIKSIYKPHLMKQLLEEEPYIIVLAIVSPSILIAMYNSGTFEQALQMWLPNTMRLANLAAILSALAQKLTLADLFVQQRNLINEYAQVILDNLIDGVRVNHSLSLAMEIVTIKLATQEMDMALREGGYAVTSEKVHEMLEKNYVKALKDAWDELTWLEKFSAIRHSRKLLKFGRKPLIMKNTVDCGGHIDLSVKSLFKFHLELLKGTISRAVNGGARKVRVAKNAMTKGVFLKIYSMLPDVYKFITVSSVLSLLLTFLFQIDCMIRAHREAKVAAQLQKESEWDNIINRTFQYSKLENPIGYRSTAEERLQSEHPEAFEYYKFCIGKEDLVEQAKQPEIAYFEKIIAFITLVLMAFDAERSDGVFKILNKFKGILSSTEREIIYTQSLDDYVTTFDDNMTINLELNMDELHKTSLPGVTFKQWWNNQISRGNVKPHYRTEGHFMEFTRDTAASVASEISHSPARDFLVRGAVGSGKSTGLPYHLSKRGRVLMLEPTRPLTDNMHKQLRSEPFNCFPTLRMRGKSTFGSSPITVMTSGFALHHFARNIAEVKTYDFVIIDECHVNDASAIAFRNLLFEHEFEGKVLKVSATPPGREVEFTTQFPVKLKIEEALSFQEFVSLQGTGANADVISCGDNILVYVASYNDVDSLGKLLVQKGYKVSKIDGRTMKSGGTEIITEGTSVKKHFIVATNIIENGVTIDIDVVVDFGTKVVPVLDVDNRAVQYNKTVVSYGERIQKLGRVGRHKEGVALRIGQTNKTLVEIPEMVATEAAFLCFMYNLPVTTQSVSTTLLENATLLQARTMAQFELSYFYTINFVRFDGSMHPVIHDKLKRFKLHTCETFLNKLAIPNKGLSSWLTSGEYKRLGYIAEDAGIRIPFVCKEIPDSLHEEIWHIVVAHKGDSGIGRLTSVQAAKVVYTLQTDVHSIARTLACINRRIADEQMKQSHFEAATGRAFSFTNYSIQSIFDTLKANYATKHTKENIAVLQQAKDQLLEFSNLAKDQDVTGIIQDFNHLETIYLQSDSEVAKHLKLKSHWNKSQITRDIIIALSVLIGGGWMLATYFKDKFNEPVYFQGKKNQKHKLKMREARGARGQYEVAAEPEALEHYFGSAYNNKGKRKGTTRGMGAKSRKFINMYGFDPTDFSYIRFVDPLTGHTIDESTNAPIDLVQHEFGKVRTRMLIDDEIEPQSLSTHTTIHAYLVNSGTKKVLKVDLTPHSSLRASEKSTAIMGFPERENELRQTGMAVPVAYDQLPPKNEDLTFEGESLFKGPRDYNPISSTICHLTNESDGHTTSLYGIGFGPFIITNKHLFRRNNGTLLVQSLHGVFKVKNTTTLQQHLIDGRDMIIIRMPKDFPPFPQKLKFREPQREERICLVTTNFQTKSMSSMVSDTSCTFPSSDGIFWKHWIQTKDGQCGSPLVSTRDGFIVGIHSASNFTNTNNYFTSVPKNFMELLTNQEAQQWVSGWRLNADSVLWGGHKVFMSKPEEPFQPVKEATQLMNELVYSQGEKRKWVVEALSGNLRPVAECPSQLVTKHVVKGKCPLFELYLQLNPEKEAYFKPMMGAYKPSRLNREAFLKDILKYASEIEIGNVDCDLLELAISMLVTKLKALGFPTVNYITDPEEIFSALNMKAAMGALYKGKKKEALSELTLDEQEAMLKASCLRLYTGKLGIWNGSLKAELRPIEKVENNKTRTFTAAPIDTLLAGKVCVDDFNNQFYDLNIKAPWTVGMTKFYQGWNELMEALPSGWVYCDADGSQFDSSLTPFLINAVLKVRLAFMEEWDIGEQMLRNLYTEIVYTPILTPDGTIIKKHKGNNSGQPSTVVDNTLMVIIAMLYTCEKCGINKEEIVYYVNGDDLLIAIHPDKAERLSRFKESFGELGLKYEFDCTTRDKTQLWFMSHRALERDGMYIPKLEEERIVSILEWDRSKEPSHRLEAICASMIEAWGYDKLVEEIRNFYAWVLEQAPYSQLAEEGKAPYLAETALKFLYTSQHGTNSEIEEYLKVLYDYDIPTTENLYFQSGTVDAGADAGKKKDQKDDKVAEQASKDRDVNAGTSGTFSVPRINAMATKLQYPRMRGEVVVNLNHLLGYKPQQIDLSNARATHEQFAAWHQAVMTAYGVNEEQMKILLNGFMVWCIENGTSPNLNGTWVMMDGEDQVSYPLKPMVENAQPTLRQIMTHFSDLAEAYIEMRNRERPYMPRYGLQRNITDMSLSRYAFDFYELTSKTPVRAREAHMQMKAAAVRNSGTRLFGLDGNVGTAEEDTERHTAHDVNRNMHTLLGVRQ
UniProt P07384, sequence (whole entry, looked up): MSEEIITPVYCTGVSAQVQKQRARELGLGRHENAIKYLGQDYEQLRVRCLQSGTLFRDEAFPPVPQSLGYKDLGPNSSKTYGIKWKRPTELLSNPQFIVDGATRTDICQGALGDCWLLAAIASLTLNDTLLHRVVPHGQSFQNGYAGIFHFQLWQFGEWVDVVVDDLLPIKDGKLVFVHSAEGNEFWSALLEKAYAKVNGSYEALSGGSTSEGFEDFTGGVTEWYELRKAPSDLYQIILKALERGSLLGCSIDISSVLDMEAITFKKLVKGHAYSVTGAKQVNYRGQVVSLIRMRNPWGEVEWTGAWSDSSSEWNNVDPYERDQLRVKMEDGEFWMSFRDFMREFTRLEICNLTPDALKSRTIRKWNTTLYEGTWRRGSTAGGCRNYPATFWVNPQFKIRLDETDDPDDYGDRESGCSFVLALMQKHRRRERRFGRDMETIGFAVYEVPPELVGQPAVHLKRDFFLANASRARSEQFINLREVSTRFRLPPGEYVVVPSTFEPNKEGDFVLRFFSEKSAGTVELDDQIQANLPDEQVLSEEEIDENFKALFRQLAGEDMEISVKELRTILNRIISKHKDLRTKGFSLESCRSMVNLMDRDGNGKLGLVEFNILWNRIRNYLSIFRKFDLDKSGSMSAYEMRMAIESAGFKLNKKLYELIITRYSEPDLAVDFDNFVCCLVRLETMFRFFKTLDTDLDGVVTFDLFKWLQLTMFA
UniProt P53350, sequence (whole entry, looked up): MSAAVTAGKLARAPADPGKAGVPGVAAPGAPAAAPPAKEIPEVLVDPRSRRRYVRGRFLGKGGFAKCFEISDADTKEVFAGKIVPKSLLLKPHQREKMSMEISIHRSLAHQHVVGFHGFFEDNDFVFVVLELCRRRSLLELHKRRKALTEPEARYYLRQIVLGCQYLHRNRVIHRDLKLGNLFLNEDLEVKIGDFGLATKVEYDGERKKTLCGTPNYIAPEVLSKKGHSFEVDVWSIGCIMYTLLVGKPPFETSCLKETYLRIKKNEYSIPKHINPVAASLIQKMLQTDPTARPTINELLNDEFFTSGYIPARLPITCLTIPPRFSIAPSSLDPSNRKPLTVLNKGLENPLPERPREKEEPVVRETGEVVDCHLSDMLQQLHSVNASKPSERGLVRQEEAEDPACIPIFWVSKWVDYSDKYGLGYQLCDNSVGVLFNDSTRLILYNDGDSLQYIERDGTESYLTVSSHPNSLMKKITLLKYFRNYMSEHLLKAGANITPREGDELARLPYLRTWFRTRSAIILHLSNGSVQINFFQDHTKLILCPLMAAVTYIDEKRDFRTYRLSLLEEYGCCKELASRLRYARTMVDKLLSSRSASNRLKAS

Block 1
Cell line: Jurkat
Time: 72 h
Endpoint: CC50
O=C(NCc1ccc(O)cc1)c1cn(Cc2ccc(F)cc2)c2ccc(Oc3ccccc3)cc2c1=O: 33.6 ± 4.11 µM
O=C(NCc1ccc(C(F)(F)F)cc1)c1cn(Cc2ccc(Cl)cc2)c2ccc(Oc3ccccc3)cc2c1=O: 81.5 ± 6.72 µM
O=C(NCc1ccc(C(F)(F)F)cc1)c1cn(Cc2ccc(F)cc2)c2ccc(Oc3ccccc3)cc2c1=O: 36.4 ± 3.61 µM
O=C(NCc1ccc(F)cc1)c1cn(Cc2ccc(F)cc2)c2ccc(Oc3ccccc3)cc2c1=O: 27.3 ± 2.05 µM
O=C(NCc1ccc(F)cc1)c1cn(Cc2ccc(C(F)(F)F)cc2)c2ccc(Oc3ccccc3)cc2c1=O: > 100 µM
Cc1ccc(CNC(=O)c2cn(Cc3ccc(Cl)cc3)c3ccc(Oc4ccccc4)cc3c2=O)cc1: 45.7 ± 7.93 µM
O=C(NCc1ccccc1)c1cn(Cc2ccc(C(F)(F)F)cc2)c2ccc(Oc3ccccc3)cc2c1=O: 6.99 ± 1.09 µM

Further values, each from its own experiment
Cc1cn([C@H]2C[C@H](N=[N+]=[N-])[C@@H](CO)O2)c(=O)[nH]c1=O
IC50 (HIV-1; viral replication, multicycle luciferase; MT4, NL4-3 NanoLuc-sec reporter): 0.017 ± 0.0046 µM

O=C(/C=C/c1nccs1)Nc1ncccn1
antifungal activity (Candida albicans; concentration not given): inactive

CC(C)C[C@H](NC(=O)[C@H]1O[C@@H]1C(=O)O)C(=O)NCCCCN=C(N)N
IC50 (Calpain-1 catalytic subunit (CAPN1, Homo sapiens, UniProt P07384); enzyme activity, inhibitor): 0.01 µM

O=C(/C=C/c1ccccc1)Nc1ncccn1
MIC80 (Candida albicans; wild type; 48 h, 30 °C): 25 µM (≈ 5.63 µg/mL)

O=C(Nc1cc(-c2ccc(Cl)cc2)[nH]n1)C1CCCCC1
remaining activity (Serine/threonine-protein kinase PLK1 (PLK1, Homo sapiens, UniProt P53350); enzyme activity; 10 µM): 90%

C1=C2CCCN[C@H]2[C@@H]2C[C@H]1[C@H]1CCCCN1C2
CC50 (MDCK; cell viability; 2 days): > 80 µM

NC(=O)CI
IC50 (Genome polyprotein, NIa protease (Tobacco etch virus, UniProt P04517); enzyme activity, inhibitor): 170 µM
